Measurements gathered from unrelated publications.
Numbered parts are unrelated; each lists some results of a single study. Substitutions count along the parent as printed.

Block 1
Target: CCND1, cyclin fold, Cln2 fusion (human)
Method: yeast growth competition, sequencing
Matrix: yeast
Notes: strong parent motif
Reference: not given
Reading: higher = stronger binding
Starting sequence: SCAPER docking peptide (human); SNARRSLNFGGST; partner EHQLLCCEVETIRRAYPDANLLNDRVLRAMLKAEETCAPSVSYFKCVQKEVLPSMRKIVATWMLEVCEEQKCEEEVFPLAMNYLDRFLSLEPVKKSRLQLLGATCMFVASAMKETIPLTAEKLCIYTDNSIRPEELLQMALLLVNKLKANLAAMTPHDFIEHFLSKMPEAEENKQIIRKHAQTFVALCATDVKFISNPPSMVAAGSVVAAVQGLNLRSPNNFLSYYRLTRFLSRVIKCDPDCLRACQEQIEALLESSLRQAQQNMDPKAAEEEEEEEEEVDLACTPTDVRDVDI
Change	normalised enrichment score
F9V	-0.102
S1R	0.142
T13R	0.698
S12H	1.45
A3N	0.71
N8H	0.955
N2P	1.17
S1G	0.413

Block 2
Target: Ras GTPase-activating protein-binding protein 1, C-terminal RGG region (G3BP1, Homo sapiens, UniProt Q13283)
Sequence of UniProt Q13283 (whole entry, looked up): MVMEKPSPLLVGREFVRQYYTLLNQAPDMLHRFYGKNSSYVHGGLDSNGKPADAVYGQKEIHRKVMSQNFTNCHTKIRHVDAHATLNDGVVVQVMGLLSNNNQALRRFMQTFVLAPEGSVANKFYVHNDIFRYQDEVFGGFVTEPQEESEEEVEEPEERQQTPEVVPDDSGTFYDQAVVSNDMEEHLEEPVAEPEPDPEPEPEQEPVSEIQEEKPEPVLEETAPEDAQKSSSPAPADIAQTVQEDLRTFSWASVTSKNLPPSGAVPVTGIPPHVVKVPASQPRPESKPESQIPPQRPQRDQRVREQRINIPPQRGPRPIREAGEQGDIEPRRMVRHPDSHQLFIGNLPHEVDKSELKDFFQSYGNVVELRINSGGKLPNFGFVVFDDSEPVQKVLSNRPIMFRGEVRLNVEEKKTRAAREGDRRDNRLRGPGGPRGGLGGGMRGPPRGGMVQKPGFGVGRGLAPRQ
Method: RNA Bind-n-Seq
Molecule type: RNA
Matrix: in vitro
Concentration: 1 µM
Notes: whole 134-nt RNA, ends assumed
Added: 150 mM KCl
Reference: input library
Reading: higher = stronger binding
Constant ends, left off below: GGGAGUUCUACAGUCCGACGAUC … UGGAAUUCUCGGGUGUCAAGG
Sequence	log2 enrichment
UGGCCCUGGUGGCAUGCGGGGAGGGAGAGGUGGCCUCAUGGAUCGUGGUGGUCCCGGUGGAAUGUUCAGAGGUGGCCGUGGUGGAGACAG	2.39
CCUGUGCUACACAUCGUAUGUACCGAAUCGGGGAAAGGGGAAAAAGGGGAAAAAAAGGGGAAAGUAUUAUGUUACGCCGUUCGGAUCUGC	0.0911
CAAGUCCUGUGCUACACAUCGUAUGUACCGAAUCGGGCCCCGGCCCCGGCCCCGGAAAGUAUUAUGUUACGCCGUUCGGAUCUGCACUUC	-2.35
GUCCUGUGCUACACAUCGUAUGUACCGAAUCGGAAAAAGGGGAAAAAGGGGAAAAAGGAAAGUAUUAUGUUACGCCGUUCGGAUCUGCAC	-1.02
CCUGUGCUACACAUCGUAUGUACCGAAUCGGGCCCCCCGGGGCCCCCCGGCCCCCCGGGGAAAGUAUUAUGUUACGCCGUUCGGAUCUGC	-2.06
AGUCCUGUGCUACACAUCGUAUGUACCGAAUCGGGGUGGGGUUUUUUUGGGGAGGGGAAAGUAUUAUGUUACGCCGUUCGGAUCUGCACU	1.78
CCUCAAGUCCUGUGCUACACAUCGUAUGUACCGAAUCGGGUGGGGUGGUGGGAAAGUAUUAUGUUACGCCGUUCGGAUCUGCACUUCCAG	0.834
UAACUUUAGAGGAGGAUCUGAUGGAGAUGGCAGUGGACGUGGAUUUGGGGAUGGCUAUAAUGGGUAUGGAGGAGGACCUGGAGGUGGCAA	0.381
UCCUGUGCUACACAUCGUAUGUACCGAAUCGGGGAAAGGGGUUUUUUUGGGGAAAGGGGAAAGUAUUAUGUUACGCCGUUCGGAUCUGCA	2.13

Block 3
Target: Interferon regulatory factor 5, full length, phosphomimetic (IRF5, Homo sapiens, UniProt Q13568-2, residues 1-514, S451D/S453D/S456D/S462D)
Method: protein-binding microarray
Molecule type: double-stranded DNA, one strand shown
Matrix: in vitro
Concentration: 940 nM top
Notes: 60-bp whole probe
Added: salmon DNA 0.4 mg/ml
Reference: random background probes
Reading: higher = stronger binding
Constant ends, left off below: GCCTAGCAC … GTCTTGATTCGCTTGACGCTGCTG
Sequence	fitted relative affinity
GACGGTCTACTTTTCCTGACGTGCTAG	0.535 z-score
TTAGATTTCATACTGGATTAGTGCTAG	0.239 z-score
TCATATGCCGACTTTGGAACTGTGCTA	0.0815 z-score
CTCATTTTCATTTTGTGTCTGTGCTAG	1.36 z-score
TTTGATTTCAGTCTCGATTAGTGCTAG	4.69 z-score
TCAATGATTGGTTGAACACTGTGCTAG	-0.289 z-score
GTGAGTCCCAAGAATGGTGTGGTGCTA	-0.375 z-score
TTAGATTTCAGTTCCGATGAGTGCTAG	1.61 z-score
GACTGTTTCCTTATCCTGACGTGCTAG	1.49 z-score
TCACCTGTACATCTATGACTGTGCTAG	0.477 z-score
TCATTTCTCCTATTTAAACTGTGCTAG	1.34 z-score
GACGGTTTCGGGTATCGGGGCGTGCTA	10 z-score
TTAGGTTTCGGACTTGGTTAGTGCTAG	6.62 z-score
GACGGTTACGGTTCCGGGACGTGCTAG	0.658 z-score
GGAGTTTTCTCATTCGTCATGTGCTAG	1.49 z-score

Mixed results
Molecule	target	test	system	setting	how to read	measurement	value
PhoQ, residues 284 288 289 292 302 303 TSTLRA	PhoP, residues 12 14 15 18 19 QWHVF (Escherichia coli, UniProt P23836)	Sort-seq, item: YFP reporter	E. coli	PhoQ-PhoP variant library, added: 10 µM Mg2+	reference: high Mg2+ state, higher = stronger signaling	fold induction	6.14
